Published values from different studies.
Every numbered part comes from another study and shows a few of its results, in no order.

Set 1
Target: Sal-like protein 4, full length isoform B (SALL4, Homo sapiens, UniProt Q9UJQ4-2, residues 1-616)
Method: universal PBM
Form: double-stranded DNA, one strand shown
Medium: in vitro
Tested at: not given
Notes: 8-mer, flanks averaged, mean of replicates
Reading: higher = stronger binding
Residues (chain): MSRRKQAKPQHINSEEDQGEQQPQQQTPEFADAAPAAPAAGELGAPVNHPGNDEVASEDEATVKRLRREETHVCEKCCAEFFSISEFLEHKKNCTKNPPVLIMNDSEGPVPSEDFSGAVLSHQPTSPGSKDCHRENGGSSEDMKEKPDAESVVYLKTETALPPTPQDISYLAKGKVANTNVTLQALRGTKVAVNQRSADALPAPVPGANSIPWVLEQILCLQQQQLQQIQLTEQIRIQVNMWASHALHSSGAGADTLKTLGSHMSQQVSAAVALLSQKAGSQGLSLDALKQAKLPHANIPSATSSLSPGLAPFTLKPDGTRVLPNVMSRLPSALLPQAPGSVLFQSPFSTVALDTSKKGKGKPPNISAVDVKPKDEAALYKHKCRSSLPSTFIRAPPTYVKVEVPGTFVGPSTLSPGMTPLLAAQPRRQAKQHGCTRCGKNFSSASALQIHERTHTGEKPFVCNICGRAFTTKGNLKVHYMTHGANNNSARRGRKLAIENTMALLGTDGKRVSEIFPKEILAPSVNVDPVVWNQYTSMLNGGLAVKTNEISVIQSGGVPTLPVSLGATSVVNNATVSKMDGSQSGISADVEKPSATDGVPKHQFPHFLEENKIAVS
With `TCCAAAGA` the E-score was -0.0114.
With `GACACGTC` the E-score was -0.189.
`AACCCCAA` has an E-score of -0.057.

Set 2
Target: Histone acetyltransferase KAT6A, winged helix 2, GST fusion (KAT6A, Homo sapiens, UniProt Q92794, residues 85-181)
Method: protein binding microarray
Form: double-stranded DNA, one strand shown
Medium: in vitro
Tested at: not given
Notes: 8-mer, flanks averaged, mean of 2 arrays, mostly near background
Relative to: not given
Reading: higher = stronger binding
Construct (chain): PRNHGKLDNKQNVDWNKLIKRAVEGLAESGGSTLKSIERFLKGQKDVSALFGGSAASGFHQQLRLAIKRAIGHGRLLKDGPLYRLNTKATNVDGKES
With `ATTATCTC` the E-score was -0.0126.
For `AATGGGCA`, the E-score was -0.0238.
`CGTATCTA` has an E-score of -0.164.

Set 3
Target: Transcription factor Sp1 (SP1, Homo sapiens, UniProt P08047, residues 1-785, full length assumed)
UniProt P08047, sequence (whole entry, looked up): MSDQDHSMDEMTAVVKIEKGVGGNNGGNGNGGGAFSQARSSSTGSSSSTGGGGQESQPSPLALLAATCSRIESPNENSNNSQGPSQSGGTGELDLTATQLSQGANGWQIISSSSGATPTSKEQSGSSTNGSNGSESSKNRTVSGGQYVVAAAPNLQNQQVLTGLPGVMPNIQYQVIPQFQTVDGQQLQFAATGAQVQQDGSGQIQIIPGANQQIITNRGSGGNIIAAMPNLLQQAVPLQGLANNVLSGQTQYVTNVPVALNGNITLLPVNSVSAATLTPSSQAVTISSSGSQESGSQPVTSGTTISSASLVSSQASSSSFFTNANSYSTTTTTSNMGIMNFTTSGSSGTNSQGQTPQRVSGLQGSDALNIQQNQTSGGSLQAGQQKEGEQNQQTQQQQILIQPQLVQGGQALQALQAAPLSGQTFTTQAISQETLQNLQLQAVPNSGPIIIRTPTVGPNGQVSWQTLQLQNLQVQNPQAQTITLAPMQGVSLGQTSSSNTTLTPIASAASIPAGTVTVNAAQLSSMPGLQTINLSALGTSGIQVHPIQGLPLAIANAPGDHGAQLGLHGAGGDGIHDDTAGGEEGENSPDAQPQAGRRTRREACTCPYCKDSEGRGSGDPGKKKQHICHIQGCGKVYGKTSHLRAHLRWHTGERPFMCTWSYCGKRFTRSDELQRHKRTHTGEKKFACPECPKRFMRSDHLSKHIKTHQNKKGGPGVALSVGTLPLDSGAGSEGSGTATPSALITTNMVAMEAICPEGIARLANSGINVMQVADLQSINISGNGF
Method: protein-binding microarray
Form: double-stranded DNA, one strand shown
Medium: in vitro
Tested at: not given
Notes: k-mer, scored over probes, only values ≥0.25
Reading: higher = stronger binding
The E-score of `GGGCGGTA` is reported as 0.27.
The E-score of `CCTACCCC` is reported as 0.368.
`ACAAATGG` gave an E-score of 0.305.
With `ATAACATA` the E-score was 0.281.

Other studies, line by line
`PhoQ, residues 284 288 289 292 302 303 GANMMA` has a fold induction of 1.36 (PhoP, residues 12 14 15 18 19 NNFVT (Escherichia coli, UniProt P23836); Sort-seq, refers to: YFP reporter; E. coli; PhoQ-PhoP variant library, together with: 10 µM Mg2+; relative to: high Mg2+ state, higher = stronger signaling).

A few entries again (set 1):
With `TCCAAAGA` the E-score was -0.0114.
